{"data": "Published values from different studies", "RPS6KA5": "Ribosomal protein S6 kinase alpha-5 (RPS6KA5, Homo sapiens, UniProt O75582)", "RPS6KA5 C-terminal kinase domain": "Ribosomal protein S6 kinase alpha-5, C-terminal kinase domain (RPS6KA5, Homo sapiens, UniProt O75582)", "RPS6KA5 N-terminal kinase domain": "Ribosomal protein S6 kinase alpha-5, N-terminal kinase domain (RPS6KA5, Homo sapiens, UniProt O75582)", "note": "Each line is one published result; not all experiments were run side by side. Several values in a cell are separate wells, animals, samples, runs or records."}
{"SMILES": "Cc1cccc(-c2ccc3nc(NC(=O)C4CCCO4)nn3c2)c1 (stereo not shown)", "target": "RPS6KA5", "test": "enzyme activity, Dundee kinase panel", "conditions": "10 µM", "measurement": "remaining activity", "value": "71%"}
{"SMILES": "CNC(=O)C1CCN(c2cc(C)c(F)cc2NC(=O)c2ccc(-c3cc(O)ccc3C)c(C)c2)CC1", "target": "RPS6KA5 C-terminal kinase domain", "test": "binding, competition with immobilised ligand", "conditions": "1 µM", "measurement": "remaining binding", "value": "100%"}
{"SMILES": "O=C=[N][Ru-4]123([n]4c5ccc(O)cc5c5c6c(c7cc(F)c[n+]1c7c54)C(=O)NC6=O)[S+]1CC[S+]2CC[S+]3CC1 (stereo not shown)", "target": "RPS6KA5", "test": "enzyme activity", "conditions": "100 nM, human enzyme, added: 10 µM ATP", "scale": "reference: untreated", "measurement": "remaining activity", "value": "15%"}
{"SMILES": "Cc1ccc(-c2c(/C=C(\\C#N)C(=O)NC(C)C)n(CCCO)c3ncnc(N)c23)cc1", "target": "RPS6KA5 C-terminal kinase domain", "test": "binding, competition with immobilised ligand", "conditions": "1 µM", "measurement": "remaining binding", "value": "81%"}
{"SMILES": "C=CC(=O)Nc1cccc(-c2cnc3[nH]cc(C(=O)NC(C)(C)C)c3n2)c1", "target": "RPS6KA5", "test": "enzyme activity, inhibitor", "conditions": "0.1 µM", "measurement": "inhibition", "value": "7%"}
{"SMILES": "COc1c(Cl)cccc1Nc1c(-c2ccncc2C#C[C@@]2(C)CCCN2C(=O)/C=C/CN(C)C)[nH]c2c1C(=O)NCC2", "target": "RPS6KA5 N-terminal kinase domain", "test": "binding, competition with immobilised ligand", "conditions": "3 µM", "measurement": "remaining binding", "value": "91%"}
{"SMILES": "C=CC(=O)N1CCCC(n2c(=O)c3ncccc3n(Cc3ccc(Oc4ccccc4)cc3)c2=O)C1 (stereo not shown)", "target": "RPS6KA5 C-terminal kinase domain", "test": "binding, competition with immobilised ligand", "conditions": "1 µM", "measurement": "remaining binding", "value": "88%"}
{"SMILES": "Cc1cccc(-c2ccc3nc(NC(=O)C4CCCCC4)nn3c2)c1", "target": "RPS6KA5", "test": "enzyme activity, Dundee kinase panel", "conditions": "10 µM", "measurement": "remaining activity", "value": "68%"}
{"SMILES": "CNC1C[S+]2CC[S+]3CC[S+](C1)[Ru-4]321([N]=C=S)[n]2c3ccc(OC)cc3c3c4c(c5cc(F)c[n+]1c5c32)C(=O)NC4=O (stereo not shown)", "target": "RPS6KA5 N-terminal kinase domain", "test": "KinomeScan", "conditions": "0.1 µM", "scale": "reference: untreated", "measurement": "remaining binding", "value": "46%"}
{"SMILES": "Cc1nc2c(F)cc(-c3nc(Nc4ccc(CNC(=O)CCCCCCC(=O)NO)cc4)ncc3F)cc2n1C(C)C", "target": "RPS6KA5", "test": "enzyme activity, inhibitor", "conditions": "1 µM", "measurement": "inhibition", "value": "84%"}
{"SMILES": "COc1cc(Nc2nc(C)cc(-c3cnn4nc(OC)ccc34)n2)cc(C(F)(F)F)c1", "target": "RPS6KA5 C-terminal kinase domain", "test": "binding, competition with immobilised ligand", "conditions": "1 µM", "measurement": "remaining binding", "value": "95%"}
{"SMILES": "CNC(=O)C[C@H](Cc1ccc(C#N)cc1)NC(=O)c1cc(-c2ccc(CN[C@H](C)c3ccc(C)cc3)o2)ccc1Cl", "target": "RPS6KA5", "test": "enzyme activity, inhibitor", "conditions": "1 µM", "measurement": "activity vs control", "value": "92%"}
{"SMILES": "N[C@H]1CC[C@H](Nc2nccc(-c3cccnc3Oc3ccc(NC(=O)NC4CC4)c4ccccc34)n2)CC1", "target": "RPS6KA5", "test": "kinobead competition pulldown", "system": "HEK293/HCT116 lysate mixture", "conditions": "10 µM, 1 h, 4 °C", "scale": "lower = stronger competition", "measurement": "log2 LFQ intensity", "value": "20.6 and 21.5 and 21.7 and 20.2"}
{"SMILES": "CN1CC[C@@H](COc2cnc(C#N)cc2-c2ccn3nc(NC(=O)C4CC4)cc3c2)C1", "target": "RPS6KA5", "test": "enzyme activity, inhibitor", "conditions": "1 µM", "measurement": "inhibition", "value": "9%"}
{"SMILES": "CCN1CCN(Cc2ccc(C(=O)Nc3ccc(C)c(NCc4cnc5[nH]ccc5c4OC)c3)cc2C(F)(F)F)CC1", "target": "RPS6KA5 N-terminal kinase domain", "test": "binding, competition with immobilised ligand", "conditions": "1 µM", "measurement": "remaining binding", "value": "69%"}
{"SMILES": "Nc1ncc2c(n1)-c1c([nH]c3ccc(C4=CCOCC4)cc13)CCC2", "target": "RPS6KA5 C-terminal kinase domain", "test": "binding, competition with immobilised ligand", "conditions": "1 µM", "measurement": "remaining binding", "value": "78%"}
{"SMILES": "COc1c(OCCCN2CCOCC2)ccc2c1N=C(NC(=O)c1cnc(N)nc1)N1CCN=C21", "target": "RPS6KA5", "test": "kinase activity, inhibitor", "conditions": "1 µM", "scale": "reference: untreated control", "measurement": "remaining activity", "value": "106%"}
{"SMILES": "CC(C)=CC1OC(C)(C)C2C=C3C(=O)C(Cl)=CC(O)C3C3C(O)C4OC4C(=O)C132 (stereo not shown)", "target": "RPS6KA5 N-terminal kinase domain", "test": "binder, KINOMEscan competition binding", "conditions": "10 µM", "scale": "reference: DMSO control", "measurement": "remaining binding", "value": "89%"}
{"SMILES": "COc1ccc(C(=O)/C=C/c2ccccc2-c2c[nH]c3ccc(C#N)cc23)c(O)c1", "target": "RPS6KA5", "test": "enzyme activity, inhibitor", "conditions": "20 µM", "measurement": "inhibition", "value": "17%"}
{"SMILES": "COc1cc(Nc2nccc(-c3cnn4nc(OC)ccc34)n2)cc(C(F)(F)F)c1", "target": "RPS6KA5 C-terminal kinase domain", "test": "binding, competition with immobilised ligand", "conditions": "1 µM", "measurement": "remaining binding", "value": "96%"}
{"SMILES": "Nc1nc(Nc2ccccc2)sc1C(=O)c1ccccc1", "target": "RPS6KA5", "test": "enzyme activity, inhibitor", "conditions": "10 µM", "measurement": "remaining activity", "value": "73%"}
{"SMILES": "Cc1cccc(O[C@H]2CCC[C@@H](C(C)CNCc3ccncc3)C2)c1 (relative stereo)", "target": "RPS6KA5", "test": "enzyme activity, inhibitor", "conditions": "1 µM", "measurement": "inhibition", "value": "6%"}
{"SMILES": "Cc1cnc2nc1Nc1cccc(c1)COC/C=C/COCc1cc(ccc1OCCN1CCOCC1)N2", "target": "RPS6KA5 C-terminal kinase domain", "test": "binding, competition with immobilised ligand", "conditions": "0.1 µM", "measurement": "remaining binding", "value": "91%"}
{"SMILES": "C=CC(=O)N1Cc2nc(-c3cc(-c4cc(Cl)cnc4Cl)c(F)cc3F)n(-c3ccncn3)c2C1", "target": "RPS6KA5", "test": "cell-free assay, inhibitor", "conditions": "1 µM", "measurement": "inhibition", "value": "-0.8%"}
{"SMILES": "NC(=O)C[C@H]1CCc2sc3ncnc(O[C@H]4CC[C@H](N5CCOCC5)CC4)c3c21", "target": "RPS6KA5", "test": "enzyme activity, inhibitor", "conditions": "10 µM", "measurement": "inhibition", "value": "2%"}
